Assay results collected from several papers.
Lines come from different studies, so protocols differ. “And” joins repeats or separate records; there may be more than shown. ± marks the error that the study gave.
TNKS2: Poly [ADP-ribose] polymerase tankyrase-2 (TNKS2, Homo sapiens, UniProt Q9H2K2)
CDK2: Cyclin-dependent kinase 2 (CDK2, Homo sapiens, UniProt P24941)
DRD3: D(3) dopamine receptor (DRD3, Homo sapiens, UniProt P35462)
SLC47A1: Multidrug and toxin extrusion protein 1 (SLC47A1, Homo sapiens, UniProt Q96FL8)

SMILES = CC(C)Oc1c(NC(=O)c2ccc(N3C(=O)C[C@H](NC(=O)c4cc(F)c(/N=N/c5c(F)cccc5F)c(F)c4)C3=O)cc2)ccc(C(=O)N/N=C/c2c(Cl)cncc2Cl)c1O; target = DNA gyrase (gyrA/gyrB, Escherichia coli, UniProt P0AES4+P0AES6); assay = DNA supercoiling, inhibitor; setting = 30 min, 37 °C, dark thermally adapted state, with: relaxed pUC19 DNA; measurement = IC50; value = > 25 µM
SMILES = O=c1[nH]c2c(nnn2Cc2c(F)c(F)c(F)c(F)c2F)c2ccc(F)cc12; target = TNKS2; assay = ADP-ribosyltransferase activity, inhibitor, NAD+ consumption fluorescence; measurement = IC50; value = 0.0661 µM
SMILES = CC[C@H](C)[C@@H]1NC(=O)[C@H](CCCNC(=N)N)NC(=O)[C@H](CCCNC(=N)N)NC(=O)[C@H](CCCCN)NC(=O)CNC(=O)[C@H](CCCNC(=N)N)NC(=O)[C@H]([C@@H](C)O)NC(=O)[C@H](CCCNC(=N)N)NC(=O)[C@H](C(C)C)NC(=O)[C@H](CCCNC(=N)N)NC(=O)[C@@H]2CCCN2C(=O)[C@H]2CCCN2C(=O)[C@H](CCCNC(=N)N)NC(=O)[C@H](CCCNC(=N)N)NC1=O; target = human Dicer; assay = pre-miR-21 processing, denaturing gel; setting = 90 min, 37 °C; measurement = IC50; value = ~10 µM
SMILES = COc1c(Cl)cccc1Nc1c(-c2ccncc2OC[C@@H]2COCCO2)[nH]c2c1C(=O)NCC2; target = ERBB4 (Homo sapiens, UniProt Q15303); assay = kinase activity, inhibitor, TR-FRET; setting = median value, with: ATP 2 mM; measurement = IC50; value = 0.014 µM
SMILES = COc1ccccc1NC(=O)CSc1nnc(-c2ccc([N+](=O)[O-])cc2)n1-c1ccccc1; target = CDK2; assay = binding; measurement = Kd; value = > 100 µM
SMILES = Cc1ccc(NS(=O)(=O)c2c(C)[nH]c(C)c2C(=O)N2CCC(F)(F)C2)cc1N(C)C; target = DRD3; assay = Go activation, antagonist, BRET; setting = with: dopamine; measurement = IC50; value = > 100 µM
SMILES = CC[C@H](C)[C@H](NC(=O)[C@H](C)N)C(=O)N[C@@H](CCCCN)C(=O)N[C@H](C(=O)N[C@@H](CCCCN)C(=O)N[C@@H](CCCNC(=N)N)C(=O)N[C@@H](CCCCN)C(=O)N[C@@H](CCCNC(=N)N)C(=O)N[C@@H](CCCCN)C(=O)N[C@@H](CCCCN)C(=O)O)[C@@H](C)O; target = Coagulation factor V, activated factor Va (F5, Homo sapiens, UniProt P12259); assay = prothrombinase activity, inhibitor; measurement = IC50; value = 70 µM
SMILES = Cc1[nH]c(C)c(S(=O)(=O)Nc2ccc(C(C)(C)O)c(Cl)c2)c1C(=O)N1CCC(F)(F)C1; target = DRD3; assay = Go activation, antagonist, BRET; setting = with: dopamine; measurement = IC50; value = > 100 µM
SMILES = O=C(O)CC(O)(CC(=O)O)C(=O)O; target = HIF1AN (Homo sapiens, UniProt Q9NWT6, Y93A); assay = enzyme activity, inhibitor; setting = pH 7; measurement = IC50; value = 140 ± 1 µM
SMILES = COc1ccc2c(=O)[nH]c3c(nnn3Cc3ccc(C)cc3)c2c1; target = TNKS2; measurement = IC50; value = 0.0933 µM
SMILES = CN1CCN(c2ccc(Nc3ncc4cc(C#N)c(=O)n(C5CCCC5)c4n3)cc2)CC1; target = Serine/threonine-protein kinase Sgk1, Δ1-59 (SGK1, Homo sapiens, UniProt O00141, S422D); measurement = IC50; value = 3.95 µM
SMILES = Cc1[nH]c(C)c(S(=O)(=O)Nc2c(Cl)ccc(Cl)c2Cl)c1C(=O)N1CCC(F)(F)C1; target = DRD3; assay = Go activation, antagonist, BRET; setting = with: dopamine; measurement = IC50; value = > 100 µM
SMILES = C[C@]12CC[C@@H]3c4ccc(O)cc4C[C@@H](CCCCCCCCC[S+]([O-])CCCC(F)(F)C(F)(F)F)[C@H]3[C@@H]1CC[C@@H]2O (stereo partly drawn); target = PGR (Homo sapiens, UniProt P06401); assay = PR receptor activity, antagonist, cell-based; measurement = IC50; value = 0.284 µM
SMILES = Cc1[nH]c(C)c(S(=O)(=O)N2CCC(F)(F)C2)c1C(=O)Nc1ccc(C(F)(F)F)c(Cl)c1; target = DRD3; assay = Go activation, antagonist, BRET; setting = with: dopamine; measurement = IC50; value = > 100 µM
SMILES = CC1=CC(=O)c2ccccc2C1=O; target = F13A1 (Homo sapiens, UniProt P00488); assay = crosslinking activity; setting = with: DTT; measurement = IC50; value = > 50 µM
SMILES = Cc1ccc(NS(=O)(=O)c2c(C(=O)N3CCC(F)(F)C3)cnn2C)cc1Cl; target = DRD3; assay = Go activation, antagonist, BRET; setting = with: dopamine; measurement = IC50; value = > 100 µM
SMILES = CCc1nc(C(N)=O)c(Nc2ccc(N3CCC(N4CCN(C)CC4)CC3)c(OC)c2)nc1NC1CCOCC1; target = SLC47A1; assay = MATE1-mediated TEA uptake, inhibitor; system = HEK293 expressing MATE1; setting = 15 min, with: radiolabelled tetraethylammonium; measurement = IC50; value = 0.035 µM
SMILES = Cc1[nH]c(C)c(S(=O)(=O)Nc2ccc(B3OC(C)(C)C(C)(C)O3)cc2)c1C(=O)N1CCC(F)(F)C1; target = DRD3; assay = Go activation, antagonist, BRET; setting = with: dopamine; measurement = IC50; value = > 100 µM
SMILES = COc1ccc(NC(=O)CSc2nnnn2C)cc1; target = CDK2; assay = binding; measurement = Kd; value = > 100 µM
SMILES = Cc1ccc(NS(=O)(=O)c2c(C)[nH]c(C)c2C(=O)NC2CCCC2)cc1Cl; target = DRD3; assay = β-arrestin recruitment, antagonist, PathHunter; setting = with: dopamine EC80; measurement = IC50; value = > 100 µM
SMILES = O=c1[nH]c2c(nnn2Cc2ccccc2)c2ccc(F)cc12; target = TNKS2; assay = inhibitor; measurement = IC50; value = 0.0813 µM
SMILES = Cc1ccc(NS(=O)(=O)c2c(C(=O)N3CCC(F)(F)C3)c(C)nn2C)cc1Cl; target = DRD3; assay = Go activation, antagonist, BRET; setting = with: dopamine; measurement = IC50; value = > 100 µM
SMILES = Cc1nc2sccn2c(=O)c1CCN1CCC(=C(c2ccc(F)cc2)c2ccc(F)cc2)CC1; target = Diacylglycerol kinase alpha (Rattus norvegicus, UniProt P51556); assay = kinase activity, inhibitor; system = HEK293T cell lysate; setting = with: diacylglycerol liposomes; measurement = IC50; value = 27.4 µM
SMILES = COc1ccc(F)cc1C(=O)NCc1ccc(-c2nn([C@@H](C)C(F)(F)F)c(N)c2C(N)=O)cc1; target = FYN (Homo sapiens, UniProt P06241); assay = target engagement, NanoBRET tracer displacement; system = HEK293; scale = above top tested dose; measurement = IC50; value = > 5 µM
SMILES = CC(C)C(=O)OCC(=O)[C@@]12O[C@H](C3CCCCC3)O[C@@H]1C[C@H]1[C@@H]3CCC4=CC(=O)C=C[C@]4(C)[C@H]3[C@@H](O)C[C@@]12C; target = Nuclear receptor ROR-gamma, RORγt ligand-binding domain (RORC, Homo sapiens, UniProt P51449); assay = co-activator peptide binding, inhibitor, HTRF; setting = 2 h, RORγt LBD 100 nM, with: SRC1-2 peptide 100 nM; measurement = IC50; value = 0.44 ± 0.04 µM
SMILES = COc1ccc2c(c1)CN(C(=O)CCN1CCC(Cc3ccccc3)CC1)CC[S@@+]2[O-]; target = KCND3 (Homo sapiens, UniProt Q9UK17); assay = Ito current, inhibitor, whole-cell patch clamp; system = stable cell line; measurement = IC50; value = 16.5 µM
SMILES = O=c1[nH]c2c(nnn2Cc2ccc(C(F)(F)F)cc2)c2ccc(F)cc12; target = TNKS2; assay = ADP-ribosyltransferase activity, inhibitor, NAD+ consumption fluorescence; measurement = IC50; value = 0.0427 µM
SMILES = O=C(Nc1ccc(Cl)cc1)c1ccc([N+](=O)[O-])o1; target = GSR (Homo sapiens, UniProt P00390); assay = enzyme activity, inhibitor; system = NCI-H23 cell lysate; measurement = IC50; value = 3.3 µM
SMILES = CC[C@@H]1[C@H](F)C(=O)N[C@@H]1COc1nccc2cc(C(N)=O)c(OC)cc12; target = CAMK2D (Homo sapiens, UniProt Q13557); assay = ATP-site probe binding, inhibitor, ActivX ATP probe profiling; system = THP-1 cell lysate; setting = probe site Lys1; measurement = IC50; value = 3.2 µM
SMILES = N#Cc1nc2c(nc1C#N)-c1ccccc1/C2=N\OCc1ccccc1; target = USP8 (Homo sapiens, UniProt P40818); assay = enzyme activity, inhibitor, MALDI-TOF DUB; setting = 35 min preincubation, 30 °C; measurement = IC50; value = 8.39 µM
SMILES = C=CC(=O)Nc1cc(Nc2nccc(-c3cn(C)c4ccccc34)n2)c(OC)cc1N(C)CCN(C)C; target = SLC47A1; assay = inhibitor; measurement = IC50; value = 4.63 µM
SMILES = O=C(N/N=C/c1ccc2cc[nH]c2c1)c1cc2c(s1)CCCC2; target = dxs (Deinococcus radiodurans, UniProt Q9RUB5); measurement = IC50; value = 15.8 µM and 14.3 µM
SMILES = O=c1[nH]c2c(nnn2Cc2ccccc2C(F)(F)F)c2ccc(F)cc12; target = TNKS2; assay = ADP-ribosyltransferase activity, inhibitor, NAD+ consumption fluorescence; measurement = IC50; value = 0.389 µM

For quick reference, copied from above:
SMILES = O=c1[nH]c2c(nnn2Cc2c(F)c(F)c(F)c(F)c2F)c2ccc(F)cc12; target = TNKS2; assay = ADP-ribosyltransferase activity, inhibitor, NAD+ consumption fluorescence; measurement = IC50; value = 0.0661 µM
SMILES = CC[C@H](C)[C@@H]1NC(=O)[C@H](CCCNC(=N)N)NC(=O)[C@H](CCCNC(=N)N)NC(=O)[C@H](CCCCN)NC(=O)CNC(=O)[C@H](CCCNC(=N)N)NC(=O)[C@H]([C@@H](C)O)NC(=O)[C@H](CCCNC(=N)N)NC(=O)[C@H](C(C)C)NC(=O)[C@H](CCCNC(=N)N)NC(=O)[C@@H]2CCCN2C(=O)[C@H]2CCCN2C(=O)[C@H](CCCNC(=N)N)NC(=O)[C@H](CCCNC(=N)N)NC1=O; target = human Dicer; assay = pre-miR-21 processing, denaturing gel; setting = 90 min, 37 °C; measurement = IC50; value = ~10 µM
SMILES = COc1c(Cl)cccc1Nc1c(-c2ccncc2OC[C@@H]2COCCO2)[nH]c2c1C(=O)NCC2; target = ERBB4 (Homo sapiens, UniProt Q15303); assay = kinase activity, inhibitor, TR-FRET; setting = median value, with: ATP 2 mM; measurement = IC50; value = 0.014 µM
